Experimental data from different studies.
A part holds a random share of what one study measured. Positions count from the first letter of the parent shown.

Set 1 — method: protein-binding microarray; form: double-stranded DNA, one strand shown; matrix: in vitro; concentration: 250 nM; notes: 60-bp whole probe; added: salmon DNA 0.4 mg/ml; reference: random background probes; reading: higher = stronger binding; shared flanks, not repeated: GCCTAGCAC … GTCTTGATTCGCTTGACGCTGCTG
Target: Interferon regulatory factor 7, full length, phosphomimetic (IRF7, Homo sapiens, UniProt Q92985, residues 1-503, S101K/S471D/S472D/S475D/S476D/S477D/S483D/S484D/S487D)
Construct (chain): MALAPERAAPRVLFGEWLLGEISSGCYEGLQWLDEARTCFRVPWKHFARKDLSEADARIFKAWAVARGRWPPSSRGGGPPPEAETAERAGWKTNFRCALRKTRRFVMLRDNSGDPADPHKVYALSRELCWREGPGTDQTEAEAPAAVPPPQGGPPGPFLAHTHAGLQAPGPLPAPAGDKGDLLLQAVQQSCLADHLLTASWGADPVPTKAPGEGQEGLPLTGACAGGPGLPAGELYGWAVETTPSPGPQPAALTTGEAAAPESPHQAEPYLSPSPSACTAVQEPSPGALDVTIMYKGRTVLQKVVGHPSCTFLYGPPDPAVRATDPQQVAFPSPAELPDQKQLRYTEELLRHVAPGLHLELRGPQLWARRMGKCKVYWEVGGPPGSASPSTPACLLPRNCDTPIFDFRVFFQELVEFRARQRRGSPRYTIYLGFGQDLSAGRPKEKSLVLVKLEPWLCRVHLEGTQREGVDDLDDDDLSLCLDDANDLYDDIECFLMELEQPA
Oligonucleotide	log fluorescence
TGAGATATCGGGTTTCGATTAGTGCTA	6.87 z-score
TAAGATTTCAGTCTCGATTAGTGCTAG	2 z-score
GACGGTTCCGGTTTCGGGTCGTGCTAG	9.72 z-score
TTAGACATCGGGACTGGATTAGTGCTA	-0.321 z-score
ATATATGTAATCATTCACCTGGTGCTA	0.172 z-score
TTAGGTATCGGTATCCGTTAGTGCTAG	1.98 z-score
TTACGTCTCGGTATCGGTTAGTGCTAG	2.12 z-score
GCTCCTTCCCCTCTAGGTCTGTGCTAG	0.67 z-score
CATTTTCTTTAACTCATTCTGTGCTAG	2.16 z-score
GACGATCTCAGAGTGGAGACGTGCTAG	-0.242 z-score
GACGATCTCAGTCTCGACACGTGCTAG	0.187 z-score
GACGGTCTCCTTCTCCTGAAGTGCTAG	0.108 z-score
CACGGTATCCTTATCCTGACGTGCTAG	0.259 z-score
GACGGTTCCGACTTTCGGGACGTGCTA	1.22 z-score
GACGATTTCAGACTGGAAACGTGCTAG	0.136 z-score
TTAGGACTGGGAATGGGTTAGTGCTAG	0.0503 z-score
TACCCTTTGAAAGTTGTTTTAGTGCTA	0.163 z-score

Set 2 — method: RNA Bind-n-Seq; form: RNA; matrix: in vitro; concentration: 365 nM; reference: no-protein control; reading: higher = stronger binding
Target: RNA binding protein fox-1 homolog 2, RRM domain, GST-SBP tag (RBFOX2, Homo sapiens, UniProt O43251-10, residues 100-194)
Notes: natural RNA segment, single round, ends assumed
Construct (chain): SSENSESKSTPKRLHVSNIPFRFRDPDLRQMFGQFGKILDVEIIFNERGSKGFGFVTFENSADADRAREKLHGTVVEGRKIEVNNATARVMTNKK
Oligonucleotide	RBNS enrichment (R)
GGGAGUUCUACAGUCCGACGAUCUCCUUGAAGAGGUCCUUCACAUCCCUUGUAAGUUGGAUUCCUAGGUAUUUUAUUCUCUUUGAAGCAAUUGUGAAUGGGAGUUCACUCAUGAUUUGGCUCUCUGUUUGUCUUGGAAUUCUCGGGUGCCAA	0.689
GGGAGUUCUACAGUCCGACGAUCUAGCACUGAGCGGUAAAGGGUCUCUUCAUCUCUGGACAUGAUGGGUGUUGUGUAUGACUCUGUUGCCUUUUUGUCUGGAAACUAAAGGCUGGGGGUGGCAAAAUCAAUGAUGGAAUUCUCGGGUGCCAA	2.86
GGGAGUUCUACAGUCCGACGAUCUCUUCUUUUUAAAAAGAAAAUAGAGAAUAGCAAAUCUUCAUGAUAAUCCUCAAAAGAACAAAAUGCUUAACUUUAUCUCUUAAUUUCUAAAGGUAAAUAACCUAGGUUCAUGGAAUUCUCGGGUGCCAA	0.327
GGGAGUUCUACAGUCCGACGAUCAAUUGUACUUUGUUCCAUUGUUAAUUGAGAAACUGUUUCAAUAAAAUAUUCUUUUCUAUAGGUUGUAUGUGUUUGCUUCUUCCCUCCCUUGUUUGUCUGUUUGUUGUGUGUGGAAUUCUCGGGUGCCAA	6.71
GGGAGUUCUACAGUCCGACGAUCACUUUUGUUAUACACAUUUGCUUUGUGUAAAUAAAUGUUUACAAUUUUAUAUGAAAGAUGGAAUAAGCGCUAGAGCUUCCAACUGUAUAUUUUUUACUUUUAUAGAUUUUUGGAAUUCUCGGGUGCCAA	1.35
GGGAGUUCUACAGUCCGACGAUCUGUGUGUGAGUUCUACGUUUCUACCAUAUGUGAUCAGUUUAAUAGUAACUUUAUUUAUUUAAAAAAAAGAAACACAAUUAGUUACUGUUAAACUGAUAAAGGGUGUUUAUUGGAAUUCUCGGGUGCCAA	1.41
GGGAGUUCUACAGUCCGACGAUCCAAAAAAUAGCUUUCAAAAGAAAUUUAAGUUCUAUGAGAAAUUCCUUAGUCAUGGUGUUGCGUAAAUCAUAUUUUAGCUGCACGGCAUUACCCCACACAGGGUGGCAGAAUGGAAUUCUCGGGUGCCAA	0.673
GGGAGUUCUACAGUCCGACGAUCGGACCCCGUCACUGCGACGUUGACACUCCUCUCCCUUCCCUUCCUCCCCAACUCCCCAAACACUGUGGAAGGGGAGAAGGAAGUGAUCCACAGCAUUCAGGCCACUUGGGUGGAAUUCUCGGGUGCCAA	1.35
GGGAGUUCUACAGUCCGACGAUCCCUGAGAGGUUCCUUUGUGUGGUGGGGCCUGAAGAAGAAAGCCCCACGGCUGGACAGCUGUUCUCUCCUCCUAUCCCACCGCUUCCCCUAAUAAAGGGACUGUUCUUUUGUGGAAUUCUCGGGUGCCAA	0.325
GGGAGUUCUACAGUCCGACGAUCCAGUCUGAGAGAAGUCUCCUUUGAGAAGGGCCAAGAGGCUCUUUCCUGAGUGUUUGCUUUCGGUUUGUUGGUAUGCCUGUAUUGCUGGGCUGUGCUGCUGCUCGAAGCAGUGGAAUUCUCGGGUGCCAA	3.3
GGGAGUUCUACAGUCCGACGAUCGUCUACAGGAAAGAGAUGUUCUGCAAACAAGGGUGGAUGCCUGCAGUAGAGGUCAGAGCUGGUUACCUGCCUUAGUUACAAGUGUCGGUUAUGUUCUGGGUCUUUGUAAUUGGAAUUCUCGGGUGCCAA	1.06
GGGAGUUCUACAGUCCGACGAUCGCUGCUGCUAGGCCUUUAUUCCCAGGGUUUGGCUGCAUUGGCAGUGAGGCAGGUGGCUGGGGGUGACACCAGGUGACAAGGGGACUCAGUGGCAGGGGGUCACACCAGGCUGGAAUUCUCGGGUGCCAA	1.08

Set 3 — method: RNA Bind-n-Seq; form: RNA; matrix: in vitro; concentration: 200 nM; notes: whole 134-nt RNA, ends assumed; added: 150 mM KCl; reference: input library; reading: higher = stronger binding
Target: Fragile X messenger ribonucleoprotein 1, C-terminal low-complexity region (Fmr1, Mus musculus, UniProt P35922)
Oligonucleotide	log2 enrichment
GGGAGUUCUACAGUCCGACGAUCGCAGGAAGUAAAAACAAGUGGAAAUGCUUCGGAUAGUGGCAGGGGUGGGGGUUGCUAAGGAAAGGGUGGGAUGGGAGUGGGUAAAGAGUUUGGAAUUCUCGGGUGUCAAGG	0.508
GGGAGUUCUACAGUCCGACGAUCGCAGGAAGUAAAAACAAAUGGAAAUGCUUCGGAUAGUGGCAGGGGUGGGGGUUGCUAAGGACAGGGUGGGAUGGGAGUGGGUAAAGAGUUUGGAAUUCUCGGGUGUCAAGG	0.175
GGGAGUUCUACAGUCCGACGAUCAAGUCCUGUGCUACACAUCGUAUGUACCGAAUCGGAAAAAGGAAAAAAAGGUUUGGAAAGUAUUAUGUUACGCCGUUCGGAUCUGCACUUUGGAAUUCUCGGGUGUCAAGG	-1.42
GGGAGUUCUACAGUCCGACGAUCGUCCUGUGCUACACAUCGUAUGUACCGAAUCGGGUUUGGGAAAAAGGGUUUUUUUGGGAAAGUAUUAUGUUACGCCGUUCGGAUCUGCACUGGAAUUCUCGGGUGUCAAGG	0.0773
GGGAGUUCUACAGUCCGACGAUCUCUAUGUAGCAUCCAGGUACUACUUCCUUUGGAAUGUCAGUAUUUAAUCUGAGCAAUGCGAUUGUGGGCAGUGGAAUCCUUGGGCUUUCUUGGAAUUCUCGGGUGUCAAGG	-0.701
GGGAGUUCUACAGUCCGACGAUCCACAGACAACACGCACCCACACAGACACCGAGGGAAGGGGUUGGGAUGGGGACAGGGUGCACAGCAGGGCGGGGUAGGACCCCAGCCCCUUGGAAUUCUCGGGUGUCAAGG	1.17
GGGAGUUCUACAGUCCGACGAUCUGGCCCUGGUGGCAUGCGGGGAGGAAGAGGUAGCCUCAUGGAUCGUGGUGGUCCCGGUGGAAUGUUCAGAGGUGGCCGUGGUGGAGACAGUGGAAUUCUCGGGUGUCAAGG	0.0288
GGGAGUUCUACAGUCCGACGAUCAGUCCUGUGCUACACAUCGUAUGUACCGAAUCGGGGAAAAGGGGAAAAGGGGAAAAGGAAAGUAUUAUGUUACGCCGUUCGGAUCUGCACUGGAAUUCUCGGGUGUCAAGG	0.0889
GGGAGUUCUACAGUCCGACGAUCUACAUUCUUUACCCCUUGUUUUAAUUUGAACCCCACCAUAUGGAUUUUUUUCCUUAAGAAAAUCUCCUUUUAGGAGAUCAUGGUGUCACAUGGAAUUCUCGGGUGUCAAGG	0.016
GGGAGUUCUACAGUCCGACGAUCAGUCCUGUGCUACACAUCGUAUGUACCGAAUCAAACCCAAAUUUUUUUAAACCCAAAAAAGUAUUAUGUUACGCCGUUCGGAUCUGCACUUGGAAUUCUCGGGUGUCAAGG	-0.128

Set 4 — target: CCNA2, cyclin fold, Cln2 fusion (human); method: yeast growth competition, sequencing; matrix: yeast; notes: strong parent motif; reference: not given; reading: higher = stronger binding
Starting sequence: CDAN1 docking peptide (human); RGARSQLFPPTEA
Change	normalised enrichment score
RGARSQLFPATEA [P10A]	1.74
RGARSQLAPPTEA [F8A]	0.321
RAARSQLFPPTEA [G2A]	1.12
RGARSQAFPPTEA [L7A]	0.303
RGARSALFPPTEA [Q6A]	0.587
